Experimental data from different studies.
A part holds a random share of what one study measured. “And” joins repeats or separate records; there may be more than shown.

Set 1
Compound: N#CC1(c2ccccn2)CCN(Cc2cc(C(=O)N3CCCC3)c(=O)n3ccccc23)CC1
Observed: cell-free assay
Technique: competition with immobilised ligand
Concentration: 1 µM
| target | remaining binding [%] |
| --- | --- |
| Tyrosine-protein kinase ABL1, phosphorylated (ABL1, Homo sapiens, UniProt P00519, F317L) | 100 |
| Serine/threonine-protein kinase WNK2 (WNK2, Homo sapiens, UniProt Q9Y3S1) | 100 |
| Tyrosine-protein kinase JAK1, JH1 (JAK1, Homo sapiens, UniProt P23458) | 95 |
| Testis-specific serine/threonine-protein kinase 3 (TSSK3, Homo sapiens, UniProt Q96PN8) | 100 |
| Serine/threonine-protein kinase NIM1 (NIM1K, Homo sapiens, UniProt Q8IY84) | 95 |
| Proto-oncogene tyrosine-protein kinase receptor Ret (RET, Homo sapiens, UniProt P07949) | 74 |
| Serine/threonine-protein kinase mTOR (MTOR, Homo sapiens, UniProt P42345) | 58 |
| Cyclin-dependent kinase 16 (CDK16, Homo sapiens, UniProt Q00536) | 100 |
| Mitogen-activated protein kinase 13 (MAPK13, Homo sapiens, UniProt O15264) | 89 |
| Protein kinase C eta type (PRKCH, Homo sapiens, UniProt P24723) | 100 |
| Ribosomal protein S6 kinase alpha-1, C-terminal kinase domain (RPS6KA1, Homo sapiens, UniProt Q15418) | 79 |
| Serine/threonine-protein kinase 33 (STK33, Homo sapiens, UniProt Q9BYT3) | 62 |
| Mitogen-activated protein kinase 7 (MAPK7, Homo sapiens, UniProt Q13164) | 63 |
| Tyrosine-protein kinase CSK (CSK, Homo sapiens, UniProt P41240) | 91 |
| Microtubule-associated serine/threonine-protein kinase 1 (MAST1, Homo sapiens, UniProt Q9Y2H9) | 82 |
| Ephrin type-A receptor 6 (EPHA6, Homo sapiens, UniProt Q9UF33) | 100 |
| Myosin-IIIa (MYO3A, Homo sapiens, UniProt Q8NEV4) | 80 |
| Tyrosine-protein kinase Lck (LCK, Homo sapiens, UniProt P06239) | 100 |
| Serine/threonine-protein kinase D2 (PRKD2, Homo sapiens, UniProt Q9BZL6) | 85 |
| Mitogen-activated protein kinase 9 (MAPK9, Homo sapiens, UniProt P45984) | 97 |
| Fibroblast growth factor receptor 3 (FGFR3, Homo sapiens, UniProt P22607, G697C) | 98 |
| TGF-beta receptor type-2 (TGFBR2, Homo sapiens, UniProt P37173) | 93 |
| Serine/threonine-protein kinase pim-2 (PIM2, Homo sapiens, UniProt Q9P1W9) | 77 |
| Calcium/calmodulin-dependent protein kinase kinase 1 (CAMKK1, Homo sapiens, UniProt Q8N5S9) | 100 |
| Tyrosine-protein kinase Fyn (FYN, Homo sapiens, UniProt P06241) | 83 |

Set 2
Cell line: HaCaT
Concentration: 100 µM
Time: 18 h
| SMILES | viability |
| --- | --- |
| Cn1c(=O)c2c(ncn2CC2OCCO2)n(C)c1=O | 98.8% |
| [H]/N=C(/N)N/C(=N/[H])NCCc1ccccc1 | 122% |
| COc1cc2nccc(Oc3ccc(NC(=O)C4(C(=O)Nc5ccc(F)cc5)CC4)cc3)c2cc1OC | 60.5% |
| COc1cc2nc(N(C)CCCNC(=O)C3CCCO3)nc(N)c2cc1OC (centres unmarked) | 92.2% |
| CCC(=O)OCC(=O)[C@@]1(OC(=O)CC)[C@@H](C)C[C@H]2[C@@H]3CCC4=CC(=O)C=C[C@]4(C)[C@@]3(F)[C@@H](O)C[C@@]21C | 71.9% |
| CCC(Cc1c(I)cc(I)c(N)c1I)C(=O)O (centres unmarked) | 97.2% |
| CCC[C@@H]1C[C@@H](C(=O)N[C@@H]([C@H]2O[C@H](SC)[C@H](O)[C@@H](O)[C@H]2O)[C@@H](C)O)N(C)C1 | 102% |

Set 3
Target: Eukaryotic initiation factor 4A-III (Homo sapiens, UniProt P38919)
Observed: RNA clamping
Technique: fluorescence polarization
Concentration: concentration not given
Notes: mean of two replicates
Added: FAM-labelled poly r(AG)8 RNA
| Compound | fluorescence polarization change [mP] |
| --- | --- |
| COCCN[C@@]12c3nc(-c4ccccc4)[nH]c(=O)c3[C@@H](c3ccccc3)[C@]1(c1ccc(OC)cc1)Oc1cc(OC)cc(OC)c12 | 2 |
| COc1ccc([C@@]23Oc4cc(OC)cc(OC)c4[C@]2(NCc2ccccc2)C(=O)C[C@H]3c2ccccc2)cc1 | 5.1 |
| C#CCNC(=O)COc1cc(OC)c2c(c1)O[C@@]1(c3ccc(OC)cc3)[C@H](c3ccccc3)c3c(nc(-c4ccccc4)[nH]c3=O)[C@@]21O | 9.1 |
| COC(=O)[C@@H]1[C@@H](c2ccccc2)[C@]2(c3ccc(OC)cc3)Oc3cc(OC)cc(OC)c3[C@@]23OC(Cc2ccccc2)=N[C@@]13O | 7.2 |
| COc1ccc([C@@]23Oc4cc(OC)cc(OC)c4[C@]2(O)[C@H](O)[C@H](C(=O)c2cc(C)c(C)o2)[C@H]3c2ccccc2)cc1 | 12.3 |
| COc1ccc([C@@]23Oc4cc(OC)cc(OC)c4[C@]2(O)[C@H](O)[C@H](C(=O)c2cc4ccccc4o2)[C@H]3c2ccccc2)cc1 | 8.2 |
| COc1ccc([C@@]23Oc4cc(OC)cc(OC)c4[C@@](O)(C2=O)[C@H](c2ccccc2)[C@H]3c2ccccc2)cc1 | 6.3 |
| COCCN[C@@]12C(=O)[C@H](C(=O)N(C)C)[C@@H](c3ccccc3)[C@]1(c1ccc(OC)cc1)Oc1cc(OC)cc(OC)c12 | 0.8 |
| COC(=O)[C@H]1[C@@H](O)[C@@]2(O)c3c(OC)cc(OCc4ccccc4)cc3O[C@@]2(c2ccc(OC)cc2)[C@@H]1c1ccccc1 | 6.6 |

Set 4
Target: DNA polymerase theta, ATPase domain (POLQ, Homo sapiens, UniProt O75417)
Observed: enzyme activity
Action: inhibitor
Concentration: 77 µM
Baseline: untreated
| SMILES | remaining activity |
| --- | --- |
| C[C@H](CCC(=O)NCC(=O)O)[C@H]1CC[C@H]2[C@@H]3[C@H](O)C[C@@H]4C[C@H](O)CC[C@]4(C)[C@H]3C[C@H](O)[C@]12C | 96.6% |
| Oc1c(Cl)cc(Cl)c2cccnc12 | 110% |
| NC1CONC1=O (racemic) | 102% |
| CC(/C=C1\SC(=S)N(CC(=O)O)C1=O)=C\c1ccccc1 | 72.2% |
| CC(C)CC(=O)N[C@H](C(=O)N[C@H](C(=O)N[C@@H](CC(C)C)[C@@H](O)CC(=O)N[C@@H](C)C(=O)N[C@@H](CC(C)C)[C@@H](O)CC(=O)O)C(C)C)C(C)C | 95.6% |
| CCN(CC)CCCC(C)Nc1ccnc2cc(Cl)ccc12 (centres unmarked) | 101% |
| OCCN1CCN(CCCN2c3ccccc3Sc3ccc(Cl)cc32)CC1 | 131% and 109% |
| CCCNS(=O)(=O)Nc1ncnc(OCCOc2ncc(Br)cn2)c1-c1ccc(Br)cc1 | 88.7% |

Set 5
Structure (SMILES): Cc1ccc(NC(=O)c2ccnc(C(F)(F)F)c2)cc1-c1cc(OCCO)nc(N2CCOCC2)c1
Concentration: 1 µM
| target | test | how to read | remaining binding [%] |
| --- | --- | --- | --- |
| Phosphatidylinositol 4,5-bisphosphate 3-kinase catalytic subunit delta isoform (PIK3CD, Homo sapiens, UniProt O00329) | competitive binding panel | baseline: vehicle | 100 |
| Serine/threonine-protein kinase Nek2 (NEK2, Homo sapiens, UniProt P51955) | competitive binding panel | baseline: vehicle | 97 |
| Dual specificity protein kinase CLK4 (CLK4, Homo sapiens, UniProt Q9HAZ1) | competitive binding panel | baseline: vehicle | 100 |
| Mitogen-activated protein kinase kinase kinase kinase 2 (MAP4K2, Homo sapiens, UniProt Q12851) | competitive binding panel | baseline: vehicle | 100 |
| Serine/threonine-protein kinase pim-1 (PIM1, Homo sapiens, UniProt P11309) | competitive binding panel | baseline: vehicle | 88 |
| Tyrosine-protein kinase ABL1 (ABL1, Homo sapiens, UniProt P00519, H396P) | competitive binding panel | baseline: vehicle | 100 |
| Tyrosine-protein kinase ABL1 (ABL1, Homo sapiens, UniProt P00519, F317L) | competitive binding scan | – | 100 |
